Measured values from different studies.
Compare with care: the assays were run in different laboratories. ± gives the spread as reported.
AURKB: Aurora kinase B (AURKB, Homo sapiens, UniProt Q96GD4)
UniProt Q96GD4, sequence (whole entry, looked up): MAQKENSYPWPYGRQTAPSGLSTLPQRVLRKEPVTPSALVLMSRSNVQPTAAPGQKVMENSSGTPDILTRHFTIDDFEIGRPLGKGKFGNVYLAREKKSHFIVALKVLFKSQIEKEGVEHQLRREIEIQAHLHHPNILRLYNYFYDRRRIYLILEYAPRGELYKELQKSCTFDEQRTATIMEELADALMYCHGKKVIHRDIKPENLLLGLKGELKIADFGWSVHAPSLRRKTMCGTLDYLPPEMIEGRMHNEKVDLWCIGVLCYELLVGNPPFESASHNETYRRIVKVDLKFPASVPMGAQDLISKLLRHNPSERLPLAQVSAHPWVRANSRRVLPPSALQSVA
GPR84: G-protein coupled receptor 84 (GPR84, Homo sapiens, UniProt Q9NQS5)
UniProt Q9NQS5, sequence (whole entry, looked up): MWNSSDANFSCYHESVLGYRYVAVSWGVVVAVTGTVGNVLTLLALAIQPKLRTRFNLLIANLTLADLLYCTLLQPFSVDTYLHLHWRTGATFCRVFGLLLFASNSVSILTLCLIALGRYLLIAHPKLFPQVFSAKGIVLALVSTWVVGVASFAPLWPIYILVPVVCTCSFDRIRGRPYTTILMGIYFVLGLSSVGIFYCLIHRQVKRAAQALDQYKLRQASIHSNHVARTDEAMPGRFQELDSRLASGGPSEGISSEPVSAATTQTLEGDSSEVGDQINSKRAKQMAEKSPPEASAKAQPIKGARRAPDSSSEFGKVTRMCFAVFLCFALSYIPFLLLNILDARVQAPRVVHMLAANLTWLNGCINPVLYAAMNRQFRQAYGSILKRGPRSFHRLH
ESR2: Estrogen receptor beta (ESR2, Homo sapiens, UniProt Q92731)
UniProt Q92731, sequence (whole entry, looked up): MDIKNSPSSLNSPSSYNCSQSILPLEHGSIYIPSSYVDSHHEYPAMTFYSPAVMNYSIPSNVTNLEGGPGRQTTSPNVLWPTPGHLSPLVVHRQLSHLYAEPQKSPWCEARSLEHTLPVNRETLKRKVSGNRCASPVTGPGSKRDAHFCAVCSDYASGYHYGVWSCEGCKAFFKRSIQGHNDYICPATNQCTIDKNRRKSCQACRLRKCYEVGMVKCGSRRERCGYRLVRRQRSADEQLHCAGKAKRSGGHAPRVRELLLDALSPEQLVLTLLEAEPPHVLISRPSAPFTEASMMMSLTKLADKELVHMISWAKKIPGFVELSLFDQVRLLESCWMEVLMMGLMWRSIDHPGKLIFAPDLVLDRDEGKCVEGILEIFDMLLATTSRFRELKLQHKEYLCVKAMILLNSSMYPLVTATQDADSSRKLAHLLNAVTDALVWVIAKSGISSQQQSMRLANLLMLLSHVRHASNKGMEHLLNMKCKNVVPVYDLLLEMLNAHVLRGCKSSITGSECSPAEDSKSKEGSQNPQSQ
VCP: Transitional endoplasmic reticulum ATPase (VCP, Homo sapiens, UniProt P55072)
UniProt P55072, sequence (whole entry, looked up): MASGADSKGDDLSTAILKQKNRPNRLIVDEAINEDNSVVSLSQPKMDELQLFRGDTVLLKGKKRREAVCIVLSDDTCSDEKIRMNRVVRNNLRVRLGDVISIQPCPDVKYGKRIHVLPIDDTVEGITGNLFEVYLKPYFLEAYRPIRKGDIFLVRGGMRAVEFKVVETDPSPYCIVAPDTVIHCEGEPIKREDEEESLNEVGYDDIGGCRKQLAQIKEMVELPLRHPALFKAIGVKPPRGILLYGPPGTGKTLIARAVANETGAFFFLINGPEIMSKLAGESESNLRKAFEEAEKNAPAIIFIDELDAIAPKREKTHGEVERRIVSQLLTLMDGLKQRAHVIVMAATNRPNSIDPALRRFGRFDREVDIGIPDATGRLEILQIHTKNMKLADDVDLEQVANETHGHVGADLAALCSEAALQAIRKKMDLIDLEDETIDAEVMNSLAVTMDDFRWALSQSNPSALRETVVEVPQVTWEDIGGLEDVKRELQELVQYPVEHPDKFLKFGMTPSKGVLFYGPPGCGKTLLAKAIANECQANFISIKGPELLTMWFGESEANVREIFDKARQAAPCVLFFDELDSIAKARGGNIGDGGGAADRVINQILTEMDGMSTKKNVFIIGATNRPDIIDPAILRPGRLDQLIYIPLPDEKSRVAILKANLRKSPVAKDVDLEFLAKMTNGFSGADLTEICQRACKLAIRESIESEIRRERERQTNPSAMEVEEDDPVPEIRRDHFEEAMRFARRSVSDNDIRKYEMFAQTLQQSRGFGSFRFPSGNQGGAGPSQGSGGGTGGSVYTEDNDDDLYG
BRAP ZnF-UBD domain: BRCA1-associated protein, ZnF-UBD domain (BRAP, Homo sapiens, UniProt Q7Z569)
UniProt Q7Z569, sequence (whole entry, looked up): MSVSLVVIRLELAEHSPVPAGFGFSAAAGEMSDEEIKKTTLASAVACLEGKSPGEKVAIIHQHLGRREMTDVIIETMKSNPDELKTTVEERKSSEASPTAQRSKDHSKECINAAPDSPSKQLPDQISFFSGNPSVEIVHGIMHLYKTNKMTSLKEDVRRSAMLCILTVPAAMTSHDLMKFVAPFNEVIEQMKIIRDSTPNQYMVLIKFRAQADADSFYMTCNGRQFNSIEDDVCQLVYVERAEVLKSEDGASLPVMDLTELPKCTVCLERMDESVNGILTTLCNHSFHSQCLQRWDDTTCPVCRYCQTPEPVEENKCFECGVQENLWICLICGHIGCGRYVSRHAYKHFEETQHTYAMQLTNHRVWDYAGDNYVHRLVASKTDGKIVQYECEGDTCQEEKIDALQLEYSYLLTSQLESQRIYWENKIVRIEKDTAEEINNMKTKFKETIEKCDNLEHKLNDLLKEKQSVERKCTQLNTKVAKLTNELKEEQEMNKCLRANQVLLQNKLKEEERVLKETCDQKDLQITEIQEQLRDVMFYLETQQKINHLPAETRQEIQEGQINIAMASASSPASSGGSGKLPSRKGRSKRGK
Sortilin: Sortilin (Homo sapiens, UniProt Q99523)
UniProt Q99523, sequence (whole entry, looked up): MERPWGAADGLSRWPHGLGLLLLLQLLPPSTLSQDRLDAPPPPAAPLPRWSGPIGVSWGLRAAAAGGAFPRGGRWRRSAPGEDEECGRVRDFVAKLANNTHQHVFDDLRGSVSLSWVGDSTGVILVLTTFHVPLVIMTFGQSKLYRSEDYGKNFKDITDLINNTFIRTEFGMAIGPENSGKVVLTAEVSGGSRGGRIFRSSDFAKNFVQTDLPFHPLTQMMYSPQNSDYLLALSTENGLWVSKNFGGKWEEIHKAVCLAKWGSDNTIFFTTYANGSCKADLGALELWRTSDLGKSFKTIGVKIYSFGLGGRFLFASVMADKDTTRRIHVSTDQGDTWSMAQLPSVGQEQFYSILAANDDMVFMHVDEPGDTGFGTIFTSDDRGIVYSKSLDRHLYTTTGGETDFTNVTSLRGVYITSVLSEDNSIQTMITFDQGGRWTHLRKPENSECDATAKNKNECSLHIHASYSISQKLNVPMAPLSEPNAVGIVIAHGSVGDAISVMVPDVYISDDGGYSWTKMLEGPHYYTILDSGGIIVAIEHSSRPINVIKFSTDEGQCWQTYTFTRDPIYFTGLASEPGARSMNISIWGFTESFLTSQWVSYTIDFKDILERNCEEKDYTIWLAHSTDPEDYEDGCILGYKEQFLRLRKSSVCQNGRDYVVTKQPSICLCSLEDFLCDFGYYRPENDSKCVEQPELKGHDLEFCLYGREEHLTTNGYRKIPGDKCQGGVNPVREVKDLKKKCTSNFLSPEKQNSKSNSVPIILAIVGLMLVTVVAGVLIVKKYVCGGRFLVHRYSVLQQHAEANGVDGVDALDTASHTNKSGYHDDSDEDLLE
UniProt P28335, sequence (whole entry, looked up): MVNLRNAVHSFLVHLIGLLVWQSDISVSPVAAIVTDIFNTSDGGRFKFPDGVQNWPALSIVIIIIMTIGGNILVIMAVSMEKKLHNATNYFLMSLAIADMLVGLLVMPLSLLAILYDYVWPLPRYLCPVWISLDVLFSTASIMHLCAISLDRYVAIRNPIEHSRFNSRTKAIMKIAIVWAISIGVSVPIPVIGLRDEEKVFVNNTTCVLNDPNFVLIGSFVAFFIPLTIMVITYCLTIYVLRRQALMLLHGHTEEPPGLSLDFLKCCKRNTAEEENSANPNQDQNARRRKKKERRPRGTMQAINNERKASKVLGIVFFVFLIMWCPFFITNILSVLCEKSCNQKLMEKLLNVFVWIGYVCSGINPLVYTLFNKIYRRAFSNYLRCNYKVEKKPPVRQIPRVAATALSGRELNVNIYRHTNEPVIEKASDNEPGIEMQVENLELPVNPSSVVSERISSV
UniProt Q92633, sequence (whole entry, unmodified, looked up): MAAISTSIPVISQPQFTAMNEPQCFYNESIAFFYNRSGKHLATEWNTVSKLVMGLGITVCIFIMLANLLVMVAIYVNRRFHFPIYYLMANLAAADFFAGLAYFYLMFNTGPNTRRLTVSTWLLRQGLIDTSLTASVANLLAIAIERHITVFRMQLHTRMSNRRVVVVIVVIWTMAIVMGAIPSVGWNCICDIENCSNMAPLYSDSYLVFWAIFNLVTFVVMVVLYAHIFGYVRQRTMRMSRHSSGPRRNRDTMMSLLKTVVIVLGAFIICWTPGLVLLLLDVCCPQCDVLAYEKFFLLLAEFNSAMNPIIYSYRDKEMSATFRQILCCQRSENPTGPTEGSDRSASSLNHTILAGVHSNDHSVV

The DC50 of O=C(COc1cccc2c1C(=O)N(C1CCC(=O)NC1=O)C2=O)NCCCCCC(=O)N1CCN(c2ccc(Nc3nc(NC4CCCCC4)c4[nH]cnc4n3)cc2)CC1 (stereo not drawn) is reported as 0.0061 µM (AURKB; degrader, western blot; IMR-32).
CCc1ccc(CCNc2cc(=O)[nH]c(=O)[nH]2)cc1 gave an EC50 of 0.123 µM (GPR84; agonist).
COc1c(O[C@@H]2O[C@H](CO)[C@@H](O)[C@H](O)[C@H]2O)cc2occ(-c3ccc(O)cc3)c(=O)c2c1O has an EC50 of 0.119 µM (ESR2; array formation, agonist; GFP-ERβ PRL-HeLa; 1 h).
The IC50 of c1ccc(-c2nc(N3CCc4ccccc4C3)c3ccccc3n2)cc1 is reported as over 30 µM (VCP; enzyme activity, inhibitor).
The Kd of O=C(O)Cn1cnc2c(oc3ccccc32)c1=O is reported as 253 µM (BRAP ZnF-UBD domain).
With Clc1ccc(CNc2nc(-c3ccccc3)nc3ccccc23)cc1 the IC50 was over 30 µM (VCP; enzyme activity, inhibitor).
For C=C1CN(S(=O)(=O)c2ccc(C)cc2)CCCN(CC2CCCCC2)CCCN(S(=O)(=O)c2ccc(OC)cc2)C1, the DC50 was 0.5 ± 0.2 µM (Sortilin; protein expression, flow cytometry; HEK-293T expressing sortilin-GFP; 24 h).
COc1cc2oc(-c3ccccc3)cc(=O)c2c(OC)c1OC gave an EC50 of 1.75 µM (ESR2; array formation, agonist; GFP-ERβ PRL-HeLa; 1 h).
For O=C(O)CCc1nccs1, the Kd was over 1000 µM (BRAP ZnF-UBD domain).
With Cc1ccc(Nc2nc(Nc3cccc(Cl)c3)nc3ccccc23)cc1 the IC50 was 49 ± 19 µM (VCP; enzyme activity, inhibitor).
For O=C(/C=C/c1ccc(O)cc1)c1c(O)cc(O)cc1O, the EC50 was 0.428 µM (ESR2; array formation, agonist; GFP-ERβ PRL-HeLa; 1 h).
The EC50 of O=c1cc(NCCc2cccc(Br)c2)[nH]c(=O)[nH]1 is reported as 0.186 µM (GPR84; agonist).
The DC50 of Cc1ncsc1-c1ccc([C@H](C)NC(=O)[C@@H]2C[C@@H](O)CN2C(=O)[C@@H](NC(=O)CCCCCCCCC(=O)N(CCO)CCCOc2ccc3c(Nc4cc(CC(=O)Nc5cccc(F)c5)[nH]n4)ncnc3c2)C(C)(C)C)cc1 is reported as 0.103 µM (AURKB; degrader, western blot, measured: Aurora kinase B; HPAF-II; 24 h).
The IC50 of Clc1ccc(Nc2nc(Nc3cccc(Cl)c3)nc3ccccc23)cc1 is reported as 117 ± 5.8 µM (VCP; enzyme activity, inhibitor).
COc1cc(O)c(CC=C(C)C)c2c1C(=O)CC(c1ccc(O)cc1)O2 (stereo not drawn) gave an EC50 of 2.24 µM (ESR2; array formation, agonist; GFP-ERβ PRL-HeLa; 1 h).
For O=C(O)CCc1nc2ccccc2c2nc(Cc3ccccc3)nn12, the Kd was over 1000 µM (BRAP ZnF-UBD domain).
For Clc1ccc(-c2nc(NCc3ccccc3)c3ccccc3n2)cc1Cl, the IC50 was 7.1 ± 0.4 µM (VCP; enzyme activity, inhibitor).
The Kd of Nc1ncnc2c1ncn2[C@@H]1O[C@H](COP(=O)(O)OP(=O)(O)O)[C@@H](O)[C@H]1O is reported as 31 ± 3 µM (Creatine kinase U-type, mitochondrial (CKMT1A, Homo sapiens, UniProt P12532, E264A); microscale thermophoresis; pH 7.0, E226A mutant, no substrate).
The Kd of NS(=O)(=O)c1ccc(NCC(=O)O)cc1 is reported as over 1000 µM (BRAP ZnF-UBD domain).
For COc1ccc(CCNc2cc(=O)[nH]c(=O)[nH]2)cc1, the EC50 was 0.0575 µM (GPR84; cAMP).
With O=c1c(O[C@@H]2O[C@H](CO)[C@@H](O)[C@H](O)[C@H]2O)c(-c2ccc(O)c(O)c2)oc2cc(O[C@@H]3O[C@H](CO[C@@H]4O[C@H](CO)[C@@H](O)[C@H](O)[C@H]4O)[C@@H](O)[C@H](O)[C@H]3O)cc(O)c12 the EC50 was 8.27 µM (ESR2; array formation, agonist; GFP-ERβ PRL-HeLa; 1 h).
With O=C(O)CNc1ccc2nncn2n1 the Kd was over 1000 µM (BRAP ZnF-UBD domain).
For C=C1CN(S(=O)(=O)c2ccc(OC)cc2)CCCN(CC2CCCCC2)CCCN(S(=O)(=O)c2ccc(N(C)C)cc2)C1, the DC50 was 0.1 ± 0.06 µM (Sortilin; protein expression, flow cytometry; HEK-293T expressing sortilin-GFP; 24 h).
The EC50 of O=c1cc(-c2ccc(O)cc2)oc2c([C@@H]3O[C@H](CO)[C@@H](O)[C@H](O)[C@H]3O)c(O)cc(O)c12 is reported as 0.107 µM (ESR2; array formation, agonist; GFP-ERβ PRL-HeLa; 1 h).
With COc1cc(F)ccc1-c1ncnc(Nc2cccc(C[S@](C)(=N)=O)c2)n1 the remaining activity was 69% (MLCK, human; kinase activity; 10 µM, with: ATP 10 µM).
CCCCCCCCCCNc1cc(=O)n(C)c(=O)[nH]1 has an EC50 of 1.88 ± 0.68 µM (GPR84; cAMP level, agonist; human cells).
For O=C(O)CN1Cc2ccccc2C1=O, the Kd was 685 µM (BRAP ZnF-UBD domain).
For O=c1cc(NCCc2ccc(Cl)cc2Cl)[nH]c(=O)[nH]1, the EC50 was 0.0437 µM (GPR84; cAMP).
Clc1ccc(Nc2nc(Nc3ccc(Cl)cc3)c3ccccc3n2)cc1 gave an IC50 of 52 ± 10 µM (VCP; enzyme activity, inhibitor).
For Cc1ccccc1CCNc1cc(=O)[nH]c(=O)[nH]1, the EC50 was 3.22 ± 0.08 µM (GPR84; cAMP level, agonist; human cells).
O=C(O)CNc1ncccn1 gave a Kd of over 1000 µM (BRAP ZnF-UBD domain).
O=c1cc(N2CCC(Cc3ccccc3)CC2)[nH]c(=O)[nH]1 has an EC50 of 0.135 µM (GPR84; cAMP).
With N#C[C@@]12C[C@@H]1[C@@H](n1cnc3c(NC4CCCC4)nc(I)nc31)[C@H](O)[C@@H]2O the Kb was 0.615 µM (5-hydroxytryptamine receptor 2C (HTR2C, Homo sapiens, UniProt P28335); antagonist, Gq dissociation BRET; human receptor).
Fc1ccc(Nc2nc(NCc3ccccc3)c3ccccc3n2)cc1 gave an IC50 of 3.8 ± 1.2 µM (VCP; enzyme activity, inhibitor).
For CCCCCCCCCCNc1cc(O)nc(O)n1, the EC50 was 0.363 µM (GPR84; agonist).
O=C1C[C@@H](c2ccc(O[C@@H]3O[C@H](CO)[C@@H](O)[C@H](O)[C@H]3O)cc2)Oc2cc(O)ccc21 has an EC50 of 0.845 µM (ESR2; array formation, agonist; GFP-ERβ PRL-HeLa; 1 h).
With CCc1oc2c([C@H](CO)N(CC)CC)cccc2c1C the EC50 was 0.0085 µM (Lysophosphatidic acid receptor 1 (LPAR1, Homo sapiens, UniProt Q92633, W271F); Gi protein dissociation, agonist, NanoBiT; HEK293T).
The EC50 of COc1cc(-c2oc3cc(O)cc(O)c3c(=O)c2O)ccc1O is reported as 1.39 µM (ESR2; array formation, agonist; GFP-ERβ PRL-HeLa; 1 h).
O=C(O)Cc1nc2ccccc2[nH]1 has a Kd of over 1000 µM (BRAP ZnF-UBD domain).

Repeated from above:
For O=C(O)CCc1nc2ccccc2c2nc(Cc3ccccc3)nn12, the Kd was over 1000 µM (BRAP ZnF-UBD domain).
With N#C[C@@]12C[C@@H]1[C@@H](n1cnc3c(NC4CCCC4)nc(I)nc31)[C@H](O)[C@@H]2O the Kb was 0.615 µM (5-hydroxytryptamine receptor 2C (HTR2C, Homo sapiens, UniProt P28335); antagonist, Gq dissociation BRET; human receptor).
The EC50 of O=c1cc(NCCc2cccc(Br)c2)[nH]c(=O)[nH]1 is reported as 0.186 µM (GPR84; agonist).
